Results gathered from unrelated publications.
≈ marks a conversion by molar mass, not a printed value.
UniProt O75385, sequence (whole entry, looked up): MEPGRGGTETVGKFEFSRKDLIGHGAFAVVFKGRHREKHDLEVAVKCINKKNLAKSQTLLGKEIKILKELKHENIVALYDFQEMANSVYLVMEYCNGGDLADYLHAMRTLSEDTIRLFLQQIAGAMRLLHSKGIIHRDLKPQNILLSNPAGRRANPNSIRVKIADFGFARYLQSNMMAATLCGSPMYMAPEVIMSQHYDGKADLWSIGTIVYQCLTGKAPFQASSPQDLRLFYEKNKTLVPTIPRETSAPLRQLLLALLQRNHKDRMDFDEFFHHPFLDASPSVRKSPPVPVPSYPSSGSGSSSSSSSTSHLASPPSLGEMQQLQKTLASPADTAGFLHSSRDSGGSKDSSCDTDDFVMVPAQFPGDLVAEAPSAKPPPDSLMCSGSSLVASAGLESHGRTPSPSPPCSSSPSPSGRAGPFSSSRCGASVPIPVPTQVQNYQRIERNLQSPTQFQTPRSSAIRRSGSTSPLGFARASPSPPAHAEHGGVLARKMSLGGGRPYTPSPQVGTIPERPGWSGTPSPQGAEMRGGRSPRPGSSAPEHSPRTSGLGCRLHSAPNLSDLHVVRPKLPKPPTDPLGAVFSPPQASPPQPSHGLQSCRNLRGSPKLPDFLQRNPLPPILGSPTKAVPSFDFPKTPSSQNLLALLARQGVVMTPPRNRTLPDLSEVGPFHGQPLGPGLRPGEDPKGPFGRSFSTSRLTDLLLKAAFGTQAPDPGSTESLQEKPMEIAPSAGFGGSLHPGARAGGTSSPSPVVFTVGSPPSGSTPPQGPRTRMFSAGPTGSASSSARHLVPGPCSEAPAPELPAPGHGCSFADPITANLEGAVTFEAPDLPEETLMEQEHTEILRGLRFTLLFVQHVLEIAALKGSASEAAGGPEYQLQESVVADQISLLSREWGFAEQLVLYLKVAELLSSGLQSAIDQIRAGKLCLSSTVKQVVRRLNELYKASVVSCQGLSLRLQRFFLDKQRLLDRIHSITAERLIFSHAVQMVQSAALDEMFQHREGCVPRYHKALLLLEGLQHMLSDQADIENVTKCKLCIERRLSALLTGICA
UniProt O43318, sequence (whole entry, looked up): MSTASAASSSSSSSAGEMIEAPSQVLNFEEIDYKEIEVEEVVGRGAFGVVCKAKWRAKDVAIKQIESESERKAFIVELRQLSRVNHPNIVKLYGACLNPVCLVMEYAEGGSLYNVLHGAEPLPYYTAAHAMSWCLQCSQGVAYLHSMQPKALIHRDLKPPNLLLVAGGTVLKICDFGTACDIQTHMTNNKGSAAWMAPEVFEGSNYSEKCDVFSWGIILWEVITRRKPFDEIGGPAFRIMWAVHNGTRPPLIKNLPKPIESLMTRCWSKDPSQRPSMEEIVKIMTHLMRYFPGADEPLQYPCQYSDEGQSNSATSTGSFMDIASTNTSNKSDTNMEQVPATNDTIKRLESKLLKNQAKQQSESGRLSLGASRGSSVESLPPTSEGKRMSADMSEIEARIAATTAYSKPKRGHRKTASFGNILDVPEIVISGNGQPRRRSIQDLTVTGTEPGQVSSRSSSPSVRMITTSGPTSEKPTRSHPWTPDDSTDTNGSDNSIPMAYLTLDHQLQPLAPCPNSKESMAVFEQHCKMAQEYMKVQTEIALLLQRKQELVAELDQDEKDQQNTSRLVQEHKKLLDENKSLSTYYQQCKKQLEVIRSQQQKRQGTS
UniProt Q8N5S9, sequence (whole entry, looked up): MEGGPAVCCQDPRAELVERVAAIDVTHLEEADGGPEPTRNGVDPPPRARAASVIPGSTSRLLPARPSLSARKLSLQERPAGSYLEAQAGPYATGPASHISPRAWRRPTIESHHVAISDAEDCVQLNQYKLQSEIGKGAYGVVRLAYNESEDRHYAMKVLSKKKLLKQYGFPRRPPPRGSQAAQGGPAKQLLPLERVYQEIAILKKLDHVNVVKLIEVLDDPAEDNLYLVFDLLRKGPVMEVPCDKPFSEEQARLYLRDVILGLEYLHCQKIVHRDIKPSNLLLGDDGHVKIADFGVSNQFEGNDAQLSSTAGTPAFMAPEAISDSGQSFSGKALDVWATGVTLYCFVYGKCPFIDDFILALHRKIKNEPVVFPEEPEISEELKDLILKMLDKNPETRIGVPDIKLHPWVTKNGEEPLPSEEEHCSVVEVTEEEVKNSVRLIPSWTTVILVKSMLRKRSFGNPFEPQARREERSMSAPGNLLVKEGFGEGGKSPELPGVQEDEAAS

For `COC(=O)c1cc(-c2cccc(NC(=S)NC3CCCCC3)c2)on1`, the MIC was > 64 µg/mL (Pseudomonas aeruginosa; microbial growth, broth dilution; ATCC27853).
`Cc1ccc(N2CCc3c(-c4cc5cccnc5nc4C)cc(C)nc32)c(Cl)c1` has an EC50 of 0.0872 µM (Plasmodium falciparum; parasite growth, SYBR Green; 3D7; 72 h).
For `COC(=O)c1cc(-c2ccc(OC)c(NC(=O)Nc3ccc(Cl)c(Cl)c3)c2)on1`, the MIC was > 64 µg/mL (Mycolicibacterium fortuitum; microbial growth, broth dilution; ATCC6841; 48 h).
`O=C(NNc1ccc(Cl)cc1)c1nnc(C23CC4CC(CC(C4)C2)C3)o1` has an EC50 of > 25 µg/mL (Rhizoctonia solani; microbial growth).
With `CCOc1cccc(=O)c2c(C)n(Cc3ccc(Cl)cc3)c(C)c12` the EC50 was 0.106 µM (Plasmodium falciparum; parasite growth, SYBR Green; 3D7; 72 h).
`C#Cc1ccc(C(=O)NN=Cc2cc(C#C)ccc2O)cc1` gave an MIC80 of 0.06 µg/mL (≈ 0.208 µM) (Candida albicans; microbial growth; pH 7.4).
For `O=C(NNc1ccc(Cl)c(Cl)c1)c1nnc(CC23CC4CC(CC(C4)C2)C3)o1`, the EC50 was > 12.5 µg/mL (Rhizoctonia solani; microbial growth).
`C#Cc1ccc(O)c(C=NNC(=O)c2ccc(COC)cc2)c1` has an MFC of 1 µg/mL (Cryptococcus neoformans; microbial killing).
With `COC(=O)c1cc(-c2cccc(NC(=S)Nc3ccc(F)cc3)c2)on1` the MIC was > 64 µg/mL (Mycolicibacterium fortuitum; microbial growth, broth dilution; ATCC6841; 48 h).
`Cc1cc(OC(C)C(=O)N2CCc3ccccc32)ccc1Cl` (centres unmarked) has an EC50 of 1.41 µM (Plasmodium falciparum; parasite growth, SYBR Green; 3D7; 72 h).
`CCCCCCCCNCC(O)c1cc(Cl)cc2c1-c1ccc(Cl)cc1C2` (racemic) has an IC50 of 0.0037 µM (Plasmodium falciparum; parasite growth, SYBR Green; W2; 48 h, drug-resistant strain, blood stage).
The remaining binding of `Cc1nn(C)cc1-c1nc2c(N3CCN(Cc4ccc(Cl)cc4)CC3)c(Cl)cnc2[nH]1` is reported as 78% (Serine/threonine-protein kinase ULK1 (ULK1, Homo sapiens, UniProt O75385); binding, competition with immobilised ligand; 1 µM).
`OC(Cn1cncn1)(Cn1cncn1)c1ccc(F)cc1F` has an MFC of > 64 µM (Candida albicans; microbial killing, broth dilution; SP3902; 48 h).
For `O=C(CN1CCN(C(=O)c2ccco2)CC1)Nc1ccccc1Br`, the EC50 was 0.327 µM (Plasmodium falciparum; parasite growth, SYBR Green; 3D7; 72 h).
The inhibition of `O=C(NNc1ccc(F)c(F)c1)c1nnc(CC23CC4CC(CC(C4)C2)C3)o1` is reported as 70.5% (Rhizoctonia solani; microbial growth; 50 µg/mL).
`CC[C@H](C)C[C@H](C)CCCCCCCCC(=O)N[C@H]1C[C@@H](O)[C@@H](NCCN)NC(=O)[C@@H]2[C@@H](O)CCN2C(=O)[C@H]([C@H](O)CCN)NC(=O)[C@H]([C@H](O)[C@@H](O)c2ccc(O)cc2)NC(=O)[C@@H]2C[C@@H](O)CN2C(=O)[C@H]([C@@H](C)O)NC1=O` gave an MFC of 1 µg/mL (Candida tropicalis; microbial killing, broth dilution; ATCC13803; 48 h).
`COC(=O)c1cc(-c2cccc(NC(=O)Nc3ccc(F)cc3F)c2)on1` gave an MIC of > 64 µg/mL (Mycolicibacterium fortuitum; microbial growth, broth dilution; ATCC6841; 48 h).
`Cc1sc(CNCCCNc2cc(=O)c3ccccc3[nH]2)c(I)c1C` has an EC50 of 0.0576 µM (Plasmodium falciparum; parasite growth, SYBR Green; 3D7; 72 h).
With `C#Cc1ccc(C=NNC(=O)c2ccc(Br)cc2Br)c(O)c1` the MFC was 0.25 µg/mL (Cryptococcus neoformans; microbial killing).
`[2H]c1c([2H])c([C@]2([2H])CCCN2C(=O)C(C)(C)Oc2ccc3cn[nH]c3c2)c([2H])c([2H])c1C([2H])([2H])[2H]` has a remaining binding of 81% (Calcium/calmodulin-dependent protein kinase kinase 1 (CAMKK1, Homo sapiens, UniProt Q8N5S9); binding, competition with immobilised ligand; 1 µM).
`Nc1ncnc2c([C@@H]3N[C@H](CO)[C@@H](O)[C@H]3O)c[nH]c12` has an inhibition of 22.8% (Dengue virus; viral replication; Vero 76, DENV2; 9.5 µM).
With `COC(=O)c1cc(-c2cccc(NC(=O)Nc3cccc(Cl)c3Cl)c2)on1` the MIC was > 64 µg/mL (Klebsiella pneumoniae; microbial growth, broth dilution; BAA1705).
The MIC80 of `C#Cc1ccc(O)c(C=NNC(=O)c2ccc(Br)cc2)c1` is reported as 0.5 µg/mL (≈ 1.46 µM) (Candida albicans; microbial growth; pH 7.4).
The remaining binding of `Nc1ncc(-c2nc(N3CCOCC3)nc(N3CCOCC3)n2)c(C(F)F)n1` is reported as 91% (Mitogen-activated protein kinase kinase kinase 7 (MAP3K7, Homo sapiens, UniProt O43318); binding, competition with immobilised ligand; 10 µM).
`C#Cc1ccc(O)c(C=NNC(=O)c2cc(Br)cc(Br)c2O)c1` gave an MIC80 of 0.015 µg/mL (≈ 0.0342 µM) (Candida albicans; microbial growth; pH 7.4).
For `C[C@@H]1[C@H](O)[C@@H](C)/C=C/C=C/C=C/C=C/C=C/C=C/C=C/[C@H](O[C@@H]2O[C@H](C)[C@@H](O)[C@H](N)[C@@H]2O)C[C@@H]2O[C@](O)(C[C@@H](O)C[C@@H](O)[C@H](O)CC[C@@H](O)C[C@@H](O)CC(=O)O[C@H]1C)C[C@H](O)[C@H]2C(=O)O`, the MFC was 1 µM (Candida albicans; microbial killing, broth dilution; SP3902; 48 h).
`COC(CNC1=CC2=NCCc3c[nH]c(c32)C1=O)c1c[nH]c2ccccc12` (centres unmarked) gave an IC50 of 0.28 µM (Plasmodium falciparum; parasite growth, SYBR Green; 3D7; blood stage).
The EC50 of `O=C(NNc1ccc(F)c(F)c1)c1nnc(C23CC4CC(CC(C4)C2)C3)o1` is reported as > 50 µg/mL (Rhizoctonia solani; microbial growth).
`C#Cc1ccc(C=NNC(=O)c2ccc(Br)c(O)c2)c(O)c1` has an MIC80 of > 16 µg/mL (Candida albicans; microbial growth; pH 7.4).
With `CC(C)(C)C(O)(CCc1ccc(Cl)cc1)Cn1cncn1` (centres unmarked) the inhibition was 100% (Rhizoctonia solani; microbial growth; 200 µg/mL).
The inhibition of `Cc1csc2[nH]c(=O)n(O)c(=O)c12` is reported as 5.2% (Human betaherpesvirus 5; viral replication, inhibitor; 10 µM, 7 days).
`CCCn1c(O)nnc1SCC(=O)Nc1cc(C(F)(F)F)ccc1Cl` gave an EC50 of 0.812 µM (Plasmodium falciparum; parasite growth, SYBR Green; 3D7; 72 h).
With `COC(=O)c1cc(-c2cccc(NC(=O)Nc3cccc(Cl)c3)c2)on1` the MIC was > 64 µg/mL (Mycobacteroides chelonae; microbial growth, broth dilution; ATCC35752; 48 h).
`C#Cc1cc(O)c(C=NNC(=O)c2ccc(Br)cc2Br)cc1C#C` gave an MIC80 of 0.015 µg/mL (≈ 0.0336 µM) (Cryptococcus neoformans; microbial growth, broth dilution; pH 7.4).
The inhibition of `O=C(NCCc1ncc(C(F)(F)F)cc1Cl)c1ccccc1C(F)(F)F` is reported as 27.3% (Rhizoctonia solani; microbial growth; 50 µg/mL).
With `COC(=O)c1cc(-c2cccc(NC(=O)Nc3ccccc3C)c2)on1` the MIC was > 64 µg/mL (Pseudomonas aeruginosa; microbial growth, broth dilution; ATCC27853).
`Cc1noc(-c2cccs2)c1C(=O)NC(C)c1cccc2ccccc12` (centres unmarked) has an EC50 of 0.329 µM (Plasmodium falciparum; parasite growth, SYBR Green; 3D7; 72 h).
The EC50 of `CC(C)(C#Cc1ccc(-c2ccc(Cl)c3c(NS(C)(=O)=O)nn(CC(F)(F)F)c23)c([C@@H](CC2CCCCC2)NC(=O)Cn2nc(C(F)(F)F)c3c2C(F)(F)[C@H]2C[C@@H]32)n1)S(C)(=O)=O` is reported as 0.07 µM (Human immunodeficiency virus 1; viral replication, inhibitor).
For `C#Cc1ccc(C=NNC(=O)c2ccc(COC)cc2)c(O)c1`, the MIC80 was 0.015 µg/mL (≈ 0.0486 µM) (Cryptococcus neoformans; microbial growth, broth dilution; pH 7.4).
`CC(Oc1ccc(C(=O)c2ccc(F)cc2)cc1)C(=O)N1CCc2ccccc21` (centres unmarked) has an EC50 of 0.0904 µM (Plasmodium falciparum; parasite growth, SYBR Green; 3D7; 72 h).
For `Cc1ccc(NNC(=O)c2nnc(CC34CC5CC(CC(C5)C3)C4)o2)cc1`, the inhibition was 48.7% (Rhizoctonia solani; microbial growth; 50 µg/mL).
`COC(=O)c1cc(-c2cccc(NC(=O)Nc3ccc(F)cc3)c2)on1` gave an MIC of > 64 µg/mL (Mycobacteroides chelonae; microbial growth, broth dilution; ATCC35752; 48 h).
For `O=C(NNc1cccc(Cl)c1)c1nnc(C23CC4CC(CC(C4)C2)C3)o1`, the inhibition was 55.9% (Rhizoctonia solani; microbial growth; 50 µg/mL).
The MFC of `CC(=O)N1CCN(c2ccc(OCC3COC(Cn4ccnc4)(c4ccc(Cl)cc4Cl)O3)cc2)CC1` (centres unmarked) is reported as 16 µM (Candida tropicalis; microbial killing, broth dilution; CGMCC2; 48 h).

Excerpt of the above:
The EC50 of `CC(C)(C#Cc1ccc(-c2ccc(Cl)c3c(NS(C)(=O)=O)nn(CC(F)(F)F)c23)c([C@@H](CC2CCCCC2)NC(=O)Cn2nc(C(F)(F)F)c3c2C(F)(F)[C@H]2C[C@@H]32)n1)S(C)(=O)=O` is reported as 0.07 µM (Human immunodeficiency virus 1; viral replication, inhibitor).
For `C#Cc1ccc(C=NNC(=O)c2ccc(COC)cc2)c(O)c1`, the MIC80 was 0.015 µg/mL (≈ 0.0486 µM) (Cryptococcus neoformans; microbial growth, broth dilution; pH 7.4).
`CC(Oc1ccc(C(=O)c2ccc(F)cc2)cc1)C(=O)N1CCc2ccccc21` (centres unmarked) has an EC50 of 0.0904 µM (Plasmodium falciparum; parasite growth, SYBR Green; 3D7; 72 h).
For `Cc1ccc(NNC(=O)c2nnc(CC34CC5CC(CC(C5)C3)C4)o2)cc1`, the inhibition was 48.7% (Rhizoctonia solani; microbial growth; 50 µg/mL).
